# Measurements collected from several papers.
# A part holds a random share of what one study measured.

# Set 1 — technique: aptamer microarray, sandwich; form: DNA with 2'F-ANA; matrix: in vitro; concentration: 200 nM; with: Cy3 exosite-II aptamer, 400 nM; reading: higher = stronger binding; oligonucleotide: GGTTGGTGTGGTTGG
# Target: Prothrombin, mature alpha-thrombin (F2, Homo sapiens, UniProt P00734)
# Setting: whole 15-mer aptamer, many near background
Modification,mean fluorescence intensity [a.u.]
2'F-ANA at 2 3 6 8 10 12 13 14,324
2'F-ANA at 1 8 10 11 12 13 15,76.3
2'F-ANA at 2 4 5 10,51.7
2'F-ANA at 3 4 5 6 8 9 11 13,117
2'F-ANA at 1 2 4 5 7 10 11 12 13 15,45.1
2'F-ANA at 3 4 6 9 10 11 14,185
2'F-ANA at 1 2 7 8 9 15,244
2'F-ANA at 4 10 11 14,82
2'F-ANA at 1 2 7 8 9 10 13 15,80.8
2'F-ANA at 3 5 11 12,230
2'F-ANA at 1 8 9 10 11 15,58.3
2'F-ANA at 2 3 5 7 9 10 11 13 14,53.3
2'F-ANA at 2 3 5 11 12 13 14 15,55.6
2'F-ANA at 1 3 6 7 9 10 11 12 14 15,63
2'F-ANA at 2 3 7 9 12 13 14,501
2'F-ANA at 1 2 3 4 7 8 9 10 12 14 15,56.7
2'F-ANA at 2 5 6 8 9 13,56.9

# Set 2 — technique: protein binding microarray; form: double-stranded DNA, one strand shown; matrix: in vitro; concentration: not given; baseline: not given; reading: higher = stronger binding
# Target: Histone acetyltransferase KAT6A, both winged helices, GST fusion (KAT6A, Homo sapiens, UniProt Q92794, residues 1-181)
# Setting: 8-mer, flanks averaged, mean of 2 arrays, mostly near background
# Residues (chain): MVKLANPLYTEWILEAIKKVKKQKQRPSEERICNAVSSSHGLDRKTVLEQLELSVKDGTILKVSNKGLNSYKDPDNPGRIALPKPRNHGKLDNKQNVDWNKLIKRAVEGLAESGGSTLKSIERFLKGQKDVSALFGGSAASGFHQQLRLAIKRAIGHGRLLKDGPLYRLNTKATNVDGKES
Oligonucleotide,E-score
AGACCTTA,-0.0872
GCAGAGGA,-0.176
GTAAGAAA,-0.133
CGGACGAA,0.233
AATGAATT,0.00943
GTGATCCA,0.043
CCACCGAA,-0.12
CGGATACG,0.241
GACGGTAA,0.276
TTGAGCAA,-0.152
GACCAGAC,-0.259
GCAAGGAA,-0.0967
GTACTCAA,-0.0711
CGAGCTAC,0.0106
AGCATGTG,-0.169
CAGAGTAG,-0.171
ATGGCGTA,0.1
AGGCATTC,-0.163
ATATTCTG,-0.0879
AGTGGTAG,-0.0789
CCGGATAA,0.0785
CAGCCTGA,-0.108
AGCTGCAA,-0.102
AACAGAGT,0.0263

# Set 3 — technique: RNA Bind-n-Seq; form: RNA; matrix: in vitro; concentration: 1 µM; setting: whole 134-nt RNA, ends assumed; with: 150 mM KCl; baseline: input library; reading: higher = stronger binding
# Target: Ras GTPase-activating protein-binding protein 1, C-terminal RGG region (G3BP1, Homo sapiens, UniProt Q13283)
# Sequence of UniProt Q13283 (whole entry, looked up): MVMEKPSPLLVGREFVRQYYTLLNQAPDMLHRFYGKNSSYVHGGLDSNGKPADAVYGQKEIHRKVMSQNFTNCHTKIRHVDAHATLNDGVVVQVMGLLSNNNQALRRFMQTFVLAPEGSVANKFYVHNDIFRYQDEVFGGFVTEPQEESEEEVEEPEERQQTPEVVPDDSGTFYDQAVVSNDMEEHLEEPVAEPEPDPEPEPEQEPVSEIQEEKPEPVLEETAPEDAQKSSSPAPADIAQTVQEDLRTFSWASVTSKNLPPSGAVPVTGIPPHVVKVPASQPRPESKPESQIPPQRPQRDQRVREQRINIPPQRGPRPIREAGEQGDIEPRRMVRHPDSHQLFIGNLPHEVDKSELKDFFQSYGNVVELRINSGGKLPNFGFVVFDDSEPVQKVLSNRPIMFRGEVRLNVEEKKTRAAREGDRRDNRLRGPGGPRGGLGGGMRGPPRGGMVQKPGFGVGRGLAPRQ
# All sequences stand within: GGGAGUUCUACAGUCCGACGAUC … UGGAAUUCUCGGGUGUCAAGG
Oligonucleotide,log2 enrichment
CACAGACAACACGCACCCACACAGACACAGAGGGAAGGGGUUGGGAUGGGGACAGGGUGAACAGCAGGGCGGGGUAGGACCCCAGCCCCU,-0.517
ACCAUGCAGGUGGGCAUCUUUGGGAAGUGGGACAAGGGGGGGAUAGGGAGGGGGGUAACACUUUGGGAACAGGUGGUCCCAGGUCGUUUC,-1.48
GUCCUGUGCUACACAUCGUAUGUACCGAAUCAAACCCCCAAAUUUAAAUUUUUUUAAAAAAGUAUUAUGUUACGCCGUUCGGAUCUGCAC,-0.565
AGUCCUGUGCUACACAUCGUAUGUACCGAAUCGGGAAAGGGAAAGGGAAAAAAAGGGAAAGUAUUAUGUUACGCCGUUCGGAUCUGCACU,-0.339
UGUGCUACACAUCGUAUGUACCGAAUCGGGGAAAAAGGGGAAAAAAAGGGGUUUUUUUGGGGAAAGUAUUAUGUUACGCCGUUCGGAUCU,1.13
AAGUCCUGUGCUACACAUCGUAUGUACCGAAUCGGUUUUUGGAAAGGUUUUUUUGGAAAGUAUUAUGUUACGCCGUUCGGAUCUGCACUU,-2.16
UGGCCUUGGUGGCAUGCGGGGAGGAAGAGGUGGCCUCAUGGAUCGUGGUGGUCCCGGUGGAAUGUUCAGAGGUGGCCGUGGUGGAGACAG,1.98
CCUUUUUGAGAAGGCCGGACCCAUUUGGGAUCUACGUCUUAUGAUGGAUCCACUGUCCGGUCAGAAUAGAGGGUAUGCAUUUAUCACCUU,-1.85
CAAGUCCUGUGCUACACAUCGUAUGUACCGAAUCGGGUUUGGGUUUUUGGGUGGGAAAGUAUUAUGUUACGCCGUUCGGAUCUGCACUUC,1.24

# Set 4 — technique: RNA Bind-n-Seq; form: RNA; matrix: in vitro; concentration: not given; baseline: input RNA pool; reading: higher = stronger binding
# Target: RING finger protein unkempt homolog, zinc fingers 1-6, GST-SBP tag (UNK, Homo sapiens, UniProt Q9C0B0, residues 30-357)
# Setting: RNA with constant flanks, human and mouse sites, ends assumed
# All sequences stand within: GGGAGUUCUACAGUCCGACGAUC … CAACAGAGGAUUGAGCAUCA
# Residues (chain): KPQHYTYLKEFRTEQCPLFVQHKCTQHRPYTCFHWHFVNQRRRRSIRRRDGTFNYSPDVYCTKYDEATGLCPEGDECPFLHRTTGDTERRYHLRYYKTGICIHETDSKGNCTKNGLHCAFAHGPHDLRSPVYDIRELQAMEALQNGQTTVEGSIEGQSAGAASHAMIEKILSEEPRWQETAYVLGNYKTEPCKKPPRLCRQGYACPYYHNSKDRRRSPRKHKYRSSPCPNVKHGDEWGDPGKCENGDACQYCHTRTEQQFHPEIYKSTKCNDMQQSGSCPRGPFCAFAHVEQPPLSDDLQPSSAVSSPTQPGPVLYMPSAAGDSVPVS
Oligonucleotide,bound/input enrichment [ratio]
AUCCUCUCUGGAACAUCAGACCUGCUCCUUACCUUCGAUGAGGCUGAGGUCCGUAAAAUUAUUAGAGUUUGCAAAGGAAUUUUGGAAUAUCUUACAGUGGCAGAGGUGGUGGAGACUAUG,0.625
CUACUACUUUGGGCUCAGAACGAGCUGGACCAGAAGAAAGUAAAAUAUCCCAAAAUGACAGACCUCAGCAAGGGUGUGAUUGAGGAGCCCAAGUAGCGCCUGCGCUUGCGUGGUGGAUCC,0.0972
UGUGUAUAGGGGGAAGGGGUUCUUUACAUUUUCUGUGGUUUGUGCUUUUUUCUUCAGUAAAUUAGUUCCCACCAUCGCAUGCCCAGGGGCCACUACCUGGCAUUAUCGCAUGCUGGGAUC,0.664
GAUAACAUUGGCAAAGACGAAUCAAAGGUGGAACAUUCAACCCACAGCAGAAAUGAACUGAUUUCAAAAGAGGAACAGAGUAGUCCAUCUUUGCUAGAAGAAAACAAAGUCCAUACAGAU,0.098
CACAACAGCAAAAUUAAAGUUGGGGCUGGAGAGAUGGCUCAGCGGUUAAGAGCUCUGACUGUUCUUUCAGUGGUCAUGAGUUCAAAUCCCAGCAACCACAUGGUGGCUCACAAUUAUCUG,0.113
CCUGGGAACAGCACCCAGUACAACAUCCUGGAAGGGUUGGAAAAGCUCAAACAUCUAGACUUUCUGAAGCAGCCACUGGCCACCCAAAAGGAUCUCACUGGCCAGGUGCCCACUCCUGUG,0.4
CUUAGUUUUGCUGUUUUUGUGGUUUGGUUUUUUUUGUUUUUUGUUUUGGUCAUCCCUAAUAAAGUGUCUGCUAAUUCAAGGCUUAUACAUUAUAUUUAUAGAAUAUAAAUUUGUCAGUGG,4.55
AAUUUGGACCUUACUCAUCCAGUAGAAGAUGGAAUUUUUGAUUCUGGAAAUUUUGAGCAAUUUCUACGGGAGAAGGUUAAAGUCAAUGGCAAAACUGGAAAUCUCGGGAAUGUUGUUCAC,0.262

# For quick reference, copied from above (set 2):
Oligonucleotide,E-score
GCAGAGGA,-0.176
AGCTGCAA,-0.102
TTGAGCAA,-0.152
CCGGATAA,0.0785
